Published values of several laboratories.
Values joined by “and” are separate records of one study, mostly repeats; a detail may differ. Numbers after ± are the reported error.
GBA1 R534H: Lysosomal acid glucosylceramidase (GBA1, Homo sapiens, UniProt P04062, R534H)
UniProt P04062, sequence (whole entry, unmodified, looked up): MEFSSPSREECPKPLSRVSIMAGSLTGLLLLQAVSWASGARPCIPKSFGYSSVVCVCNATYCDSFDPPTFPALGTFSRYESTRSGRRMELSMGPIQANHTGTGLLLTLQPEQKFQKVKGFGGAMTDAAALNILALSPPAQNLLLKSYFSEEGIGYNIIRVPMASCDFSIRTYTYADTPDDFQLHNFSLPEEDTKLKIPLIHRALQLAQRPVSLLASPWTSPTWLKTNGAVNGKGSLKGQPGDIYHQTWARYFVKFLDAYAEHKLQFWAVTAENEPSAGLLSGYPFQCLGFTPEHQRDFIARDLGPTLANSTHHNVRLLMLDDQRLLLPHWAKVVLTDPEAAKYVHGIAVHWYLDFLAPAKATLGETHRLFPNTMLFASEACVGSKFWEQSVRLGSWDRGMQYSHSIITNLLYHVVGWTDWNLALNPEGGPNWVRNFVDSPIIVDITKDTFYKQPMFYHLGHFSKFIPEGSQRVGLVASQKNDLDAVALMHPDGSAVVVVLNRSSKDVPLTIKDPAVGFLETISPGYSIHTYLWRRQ
UniProt P31751, sequence (whole entry, looked up): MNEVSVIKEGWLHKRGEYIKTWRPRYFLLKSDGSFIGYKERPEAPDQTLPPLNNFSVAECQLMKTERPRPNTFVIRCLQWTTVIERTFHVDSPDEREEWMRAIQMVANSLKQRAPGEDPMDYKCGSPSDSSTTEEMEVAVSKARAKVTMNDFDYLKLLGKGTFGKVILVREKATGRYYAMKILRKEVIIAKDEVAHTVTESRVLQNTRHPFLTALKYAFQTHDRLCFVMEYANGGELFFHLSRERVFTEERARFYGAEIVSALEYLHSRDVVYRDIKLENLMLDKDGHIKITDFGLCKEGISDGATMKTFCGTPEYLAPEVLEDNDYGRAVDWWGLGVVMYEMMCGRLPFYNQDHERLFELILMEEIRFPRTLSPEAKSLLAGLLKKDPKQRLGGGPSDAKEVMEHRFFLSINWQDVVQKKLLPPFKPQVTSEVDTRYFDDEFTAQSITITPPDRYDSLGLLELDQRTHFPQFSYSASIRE

CN1CCCNC(=O)c2cccc(c2)C(=O)NCCCN(C)CCCNc2cccc3c2C(=O)c2cccc(c2C3=O)NCCC1
log2 fold change (SAS; RNA-Seq, measured: MCMBP mRNA; 1 µM, 6 h; reference: untreated cells): -0.483

COC(=O)c1cc(NC2=NC(=O)C(=Cc3ccc(N(C)C)cc3)S2)ccc1OC(C)=O
fold change (MCF7; measured: ESCO2 mRNA; 0.81 µM (IC50), 24 h; reference: DMSO): 0.272

CCCCN1C(=O)c2cccc3c(NCCCCCCN4CCOCC4)ccc(c23)C1=O
Pearson's coefficient (BHK-21; confocal colocalization; 0.2 µM, added: ER-Tracker Red 0.3 µM): 0.19 ± 0.04

CC(C)c1ccc(N(C)c2ccc3c(c2)OCC[C@H]3CNc2cnccc2C(=O)O)cc1
IC50 (HT55; cell growth or viability, ATP luminescence; 7 days): 14.2 nM

C=C1C(=O)OC2C1CCC(C)(O)C13C=CC(C)(C21)C1(C3)C(=O)OC2C3C(C)C(=O)CC3C(=C)CC(OC(C)=O)C21 (centres unmarked)
total cholesterol content (AML12; concentration not given, concentration-dependent, added: palmitate/oleate): decreased

CN(C)CCN1CCN(c2ccc3nc(-c4ccc5nc(-c6ccc(C(F)(F)F)cc6)[nH]c5c4)[nH]c3c2)CC1
growth percent (786-0; cell growth, NCI-60 SRB; 10 µM, 48 h): 78.5%

COC(=O)c1cc(NC2=NC(=O)C(=Cc3ccc(C)cc3)S2)ccc1OC(C)=O
metabolite level (MCF7; GC-MS, measured: 11-Eicosenoic acid; 1 µM; reference: DMSO): -1.12 fold change

COc1ccc(N(c2ccccc2)S(=O)(=O)C2CC3OC2C(c2ccc(O)cc2)=C3c2ccc(O)cc2)cc1 (centres unmarked)
Emax (MCF7 3xERE-luc, steroid-deprived; ERE luciferase reporter, agonist; reference: vehicle): -6.8%

C=C1C(=O)OC2C1CCC(C)(O)C13C=CC(C)(C21)C1(C3)C(=O)OC2C3C(C)=CCC3(O)C(C)=CC(OC(C)=O)C21 (centres unmarked)
maximum inhibition (AML12 mouse hepatocytes; lipid accumulation, Nile Red staining; maximum safe concentration, 24 h, added: palmitic acid/oleic acid): 16.9 ± 2.57%

CCCCCOCCCCCN1C[C@H](O)[C@@H](O)[C@H](O)[C@@H]1CO
IC50 (GBA1 R534H; inhibitor, 4MU-β-D-glucopyranoside; added: 4MU-β-D-glucopyranoside): 100000 nM

O=Cc1cc(OCc2ccccc2)ccc1B(O)O
pseudo-first-order rate constant (reaction with N-acetyl-lysine, HPLC-MS; pH 10.2, added: N-α-acetyl-lysine): 0 h⁻¹

CC(C)=CCC/C(C)=C/CC/C(C)=C/CN1C[C@H](O)[C@@H](O)[C@H](O)[C@H]1CO
IC50 (GBA1 R534H; inhibitor, 4MU-β-D-glucopyranoside; added: 4MU-β-D-glucopyranoside): 2170 nM

Cc1cc(NC2CCN(C)CC2)ccc1-c1cc2c(N3CCC[C@H](C(=O)N[C@H](C)c4ccccc4)C3)ncnc2[nH]1
inhibition (KARPAS-299; cell growth or viability, MTT; 0.0016 µg/mL, 72 h): 6.97%

COc1cc(N2CCOCC2)ccc1Nc1ncc(Cl)c(Nc2ccccc2NS(C)(=O)=O)n1
G2/M phase cells (PC-9 del19/T790M/C797S; PI flow cytometry; above 0.3 µM, 18 h): increased

COc1cc(N2CCN(C(=O)C3CCCN3)CC2)ccc1Nc1ncc(Cl)c(Nc2ccccc2P(C)(C)=O)n1 (centres unmarked)
late apoptotic cells (Ba/F3 EML4-ALK; flow cytometry; concentration not given, 6 h): 10.2% and 9.05% and 9.9%

O=C(Nc1ccccc1)C12CC3CC(C1)CC(n1cnc([N+](=O)[O-])n1)(C3)C2
relative translation (Trypanosoma cruzi; reporter mRNA translation, inhibitor, measured: capped polyadenylated Renilla luciferase mRNA; cell-free extract; concentration not given; reference: control RNA): 112%

Cn1ncc2cc(-c3cncc(Cl)c3N3CCC4(CCNC4=O)CC3)ccc21
log2 fold change (LS174T; gene expression, microarray, measured: ACTG2 mRNA; concentration not given, 4 h; reference: untreated cells): 2.75

COc1cccc(OC)c1-c1cc(C(=O)NC2(C(=O)O)C3CC4CC(C3)CC2C4)nn1-c1ccc(C(=O)NCCNC(=O)[C@H](CCCCNC(=O)[C@H](CC(C)C)NC(=O)C2OC2C(=O)O)NC(=O)CN2CCN(CC(=O)[O-])CCN(CC(=O)[O-])CCN(CC(=O)[O-])CC2)cc1C(C)C.[177Lu+3] (mixture of isomers)
internalized fraction (HT-29; concentration not given, 60 min; reference: added activity): 1.62 ± 0.19%

Cc1ncsc1-c1ccc(C(C)NC(=O)C2CC(O)CN2C(=O)C(NC(=O)CCCCCCCCCCN2CCCC(Nc3ncc(Cl)c(Nc4ccccc4S(=O)(=O)C(C)C)n3)C2)C(C)(C)C)cc1 (centres unmarked)
log2 fold change (22Rv1; RNA-seq, measured: ZNF175 mRNA; concentration not given; reference: DMSO): -1.14

Cc1ccncc1.[Cl-].[Cl-].[Ru+2].c1cc(-c2ccc3cccnc3n2)nc(-c2ccc3cccnc3n2)c1.c1ccc2cc3nc4c5cccnc5c5ncccc5c4nc3cc2c1
EC50 (SK-MEL-28; photocytotoxicity; light 633 nm, oxygen 18.5%): 605 ± 21 nM

Cc1cnc(Nc2ccc(C3CCN(C)CC3)c(F)c2)nc1Nc1ccc(Cl)c(NS(=O)(=O)C(C)(C)C)c1
protein reduction (MM1.S; measured: MYC; 3 µM, 6 h; reference: vehicle): ~92%

CC(=O)Oc1ccccc1C(=O)[Se]CC(=O)Nc1cccc(C(F)(F)F)c1
GI50 (NCI60 CNS cancer panel; five-dose screen): 2200 nM

COCCCCCNc1nc(NCCCCCCN(C)C)c2cc(NC(=O)/C=C/CN(C)C)ccc2n1
viability (MCF7; CellTiter-Glo; 25 µM, 72 h, unit not given; reference: DMSO-treated cells): 0.962 and 0.996 and 0.913

C=CC(=O)N1[C@H](c2ccc3c(c2)OCO3)c2[nH]c3ccccc3c2C[C@@H]1C(=O)NC1CC1
neuron degeneration (rat DRG neurons; 0.1235 µM, 48 h, added: vincristine 40 nM): 64.3% and 63.6%

O=C(C[Se]C(=O)c1ccccc1Nc1cccc(C(F)(F)F)c1)Nc1cccc(C(F)(F)F)c1
GI50 (NCI60 CNS cancer panel; five-dose screen): 1760 nM

CCN(CC)CCNC(=S)Nc1ccc2nc(N3CCN(CC)CC3)cc(C)c2c1
GFP-positive cells (U2OS SSA-GFP reporter; single-strand annealing, flow cytometry; 20 µM): 4.08%

Cc1ccc(-n2cc(CSc3nc4ccccc4n3Cc3cn(-c4ccc(C)cc4)nn3)nn2)cc1
cytotoxicity (HEK293; MTT; 62.5 ppm): 70.6%

CN1CCN(C(=O)c2ccc(-c3cc4c(N5CCC[C@H](C(=O)NCc6ccc(OC(F)(F)F)cc6)C5)ncnc4[nH]3)cc2)CC1
inhibition (KARPAS-299; cell growth or viability, MTT; 0.04 µg/mL, 72 h): 68.7%

C=CC(=O)N1CCCC(n2c(=O)c3ncccc3n(Cc3ccc(Oc4ccccc4)cc3)c2=O)C1 (centres unmarked)
log2 fold change (Rec1; measured: GCLC; concentration not given; reference: untreated): 0.333

CCNc1cc2c(cc1C)C1(c3cc(C)c(NCC)cc3O2)c2ccccc2C(=O)N1N=Cc1c[c-]c(-c2ccccn2)cc1.Cc1c(C)c(-c2ccc(-c3ccccc3)cc2)[c-](C)c1C.[Cl-].[Ir+3]
JC-1 aggregate cells (A549; flow cytometry; 2.0×IC50, 24 h): 96.14 ± 0.27%

CCOc1cncc(-c2ccc(NC(=O)C3(c4ccnc(NS(=O)(=O)C5CC5)n4)CCOCC3)nc2)n1
IC50 (colon cancer; cell viability, CellTiter-Glo; DMSO 0.1%; 72 h, line code 280): 85 nM

Cc1nn(-c2cccc(N)c2)c(=O)c2cnc(Nc3ccc(N4CCNCC4)cc3)nc12
IC50 (RAC-beta serine/threonine-protein kinase (AKT2, Homo sapiens, UniProt P31751); SelectScreen kinase): > 10000 nM

CNS(=O)(=O)Nc1nccc(Cc2c(C)c3ccc(Oc4ncccc4F)cc3oc2=O)c1F
IC50 (YAPC; cell viability; 7 days): > 1000 nM

CCN(Cc1ccc(C#CCCO)cc1)CC1CCCN(CCc2cccc(F)c2)C1 (centres unmarked)
relative translation (Trypanosoma cruzi; reporter mRNA translation, inhibitor, measured: capped polyadenylated Renilla luciferase mRNA; cell-free extract; concentration not given; reference: control RNA): 121%

CCN(CC)CC(=O)Nc1cccc(-n2cc(-c3ccc4ccc(-c5cn(-c6cccc(NC(=O)CN(CC)CC)c6)nn5)cc4c3)nn2)c1
fold regulation (RCC4; PCR angiogenesis array, measured: AKT1; 5 x IC50, 4 h, normoxia; reference: untreated): -1.15

CCCCCCc1cccc([C@H](O)C[C@H](CO)NC(=O)CCCCCCCCCCBr)c1
sphingomyelin level (HeLa; CERT activity, HPLC-MS/MS lipidomics, measured: sphingomyelin 22; 1 µM, 24 h, not cell-number normalised): 32500 pmol/sample and 49000 pmol/sample

COc1c(C)c(OS(=O)(=O)c2ccccc2)c(C)c(O)c1C(=O)/C=C/c1ccccc1
selectivity index (FaDu; SRB; reference: normal over FaDu IC50): 1.07

Cc1cc(NC(=O)c2cccc(NC(=O)/C(C#N)=C/C(C)(C)C)c2)ccc1Nc1nccc(-c2cccnc2)n1
reporter activity (HEK293 AP1 reporter cells; AP-1 reporter gene, inhibitor; 1 µM, 6 h, unit not given, added: PMA; reference: PMA alone): 0.956

Cc1cc(Cl)cc(-c2ccnc3cc(CN4C(=O)C5C(C4=O)C5(C)C)sc23)c1C[C@@H]1CNCCO1 (some centres unmarked)
viable cells (CHP-212 parental; annexin V/PI flow cytometry; 1 µM, 48 h): 33.1% and 47.4% and 42.6%

CCC(CC)n1c(Cc2cccs2)nc2cc(C(=O)N[C@@H](CC(=O)O)c3ccccc3)ccc21
LDH release (H9c2; concentration not given, 48 h, added: ISO and MCM): decreased

CN(C)c1ccc(-n2cc(COC(=O)[C@@]3(C)C=C(C(=O)OC(C)(C)C)C(=O)CC3)nn2)cc1
pRSK/tubulin ratio (HeLa; quantitative western blot; concentration not given, 4 (unit not given), added: EGF): 0.171
